Experimental data pooled from the literature.
Compare with care: the assays were run in different laboratories.
PIK3CD: Phosphatidylinositol 4,5-bisphosphate 3-kinase catalytic subunit delta isoform (PIK3CD, Homo sapiens, UniProt O00329)
UniProt O00329, sequence (whole entry, looked up): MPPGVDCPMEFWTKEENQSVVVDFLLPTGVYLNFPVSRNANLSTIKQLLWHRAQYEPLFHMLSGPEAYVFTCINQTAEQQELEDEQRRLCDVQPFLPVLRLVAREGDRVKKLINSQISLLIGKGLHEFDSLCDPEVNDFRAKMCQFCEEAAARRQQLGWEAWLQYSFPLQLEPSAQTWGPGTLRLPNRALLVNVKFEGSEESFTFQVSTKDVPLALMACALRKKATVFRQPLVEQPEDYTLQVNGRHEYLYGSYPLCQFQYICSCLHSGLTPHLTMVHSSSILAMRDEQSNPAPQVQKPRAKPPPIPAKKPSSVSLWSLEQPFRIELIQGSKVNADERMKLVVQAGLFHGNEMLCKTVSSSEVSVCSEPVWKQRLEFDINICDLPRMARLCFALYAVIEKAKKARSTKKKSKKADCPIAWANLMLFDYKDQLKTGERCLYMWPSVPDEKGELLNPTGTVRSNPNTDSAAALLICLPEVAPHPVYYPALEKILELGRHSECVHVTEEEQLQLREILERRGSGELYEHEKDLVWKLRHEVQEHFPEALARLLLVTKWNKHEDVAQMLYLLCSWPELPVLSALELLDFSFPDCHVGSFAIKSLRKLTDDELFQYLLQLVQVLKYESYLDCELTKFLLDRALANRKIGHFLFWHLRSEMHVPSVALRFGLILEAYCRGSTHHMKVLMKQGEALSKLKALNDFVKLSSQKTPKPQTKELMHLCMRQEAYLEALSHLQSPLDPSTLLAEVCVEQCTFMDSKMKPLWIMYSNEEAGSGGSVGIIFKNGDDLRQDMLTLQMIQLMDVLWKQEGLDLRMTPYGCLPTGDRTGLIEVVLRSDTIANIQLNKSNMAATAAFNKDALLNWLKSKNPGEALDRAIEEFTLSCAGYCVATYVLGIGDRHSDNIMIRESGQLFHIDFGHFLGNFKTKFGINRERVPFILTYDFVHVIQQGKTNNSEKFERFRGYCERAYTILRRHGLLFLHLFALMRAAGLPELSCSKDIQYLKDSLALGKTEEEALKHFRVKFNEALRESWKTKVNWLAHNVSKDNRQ

| Structure (SMILES) | target | test | test system | setting | IC50 |
| --- | --- | --- | --- | --- | --- |
| CC(=O)c1cnc(N)nc1N1CC[C@H]1c1nn2ccc(Cl)c2c(=O)n1-c1ccccc1 | PIK3CD | kinase binding, KiNativ | human PBMC | intact cells, uncorrected for dilution | 47 nM |
| CCN(CC)CC(=O)Nc1cccc(-n2cc(-c3ccc4ccc(-c5cn(-c6cccc(NC(=O)CN(CC)CC)c6)nn5)cc4c3)nn2)c1 | PIK3CD | enzyme activity, inhibitor | – | – | > 10000 nM |
| Cc1nn(-c2cccc(N)c2)c(=O)c2cnc(Nc3ccc(N4CCNCC4)cc3)nc12 | Phosphatidylinositol 4,5-bisphosphate 3-kinase catalytic subunit delta isoform, with p85 alpha (PIK3CD, Homo sapiens, UniProt O00329) | inhibitor | – | with PIK3R1 (p85α) | > 10000 nM |
| Cc1nc(Nc2ccc3c(c2)/C(=C/c2c[nH]c4ccccc24)C(=O)N3)c2ccccc2n1 | PIK3CD | enzyme activity, inhibitor, ADP detection | – | – | > 1000 nM |
| Cc1ccc(CN2C(=O)C3(c4ccccc42)C(c2ccc(F)cc2)NC2(C(=O)N(C(=O)CCc4ccccc4)c4ccccc42)N3Cc2ccc(F)cc2)cc1 (stereo not shown) | PIK3CD | enzyme activity, inhibitor, ADP detection | – | – | 127 nM |
| CC(=O)N1c2ccc(-c3ccc(CNC(=O)c4cn5cc(-c6cnc(N)nc6)nc(N6CCOCC6)c5n4)cc3)cc2CC[C@@H]1C | PIK3CD | kinase activity, inhibitor, Kinase-Glo | – | – | 45 nM |
| O=C1/C(=N\c2ccc(Cl)cc2Br)c2ccccc2N1Cc1ccccc1 (mixture of isomers) | PIK3CD | enzyme activity, inhibitor, ADP detection | – | – | 517 nM |
| Cc1nc(N(C)c2ccc3c(c2)/C(=C/c2ccccc2C)C(=O)N3C)c2ccccc2n1 | PIK3CD | enzyme activity, inhibitor, ADP detection | – | – | > 1000 nM |
| O=C1/C(=N\c2ccc(Cl)cc2Br)c2ccccc2N1C(=O)c1ccccc1 | PIK3CD | enzyme activity, inhibitor, ADP detection | – | – | 575 nM |
| COc1ccccc1/C=C1\C(=O)N(C)c2ccc(N(C)c3nc(C)nc4ccccc34)cc21 | PIK3CD | enzyme activity, inhibitor, ADP detection | – | – | 440 nM |

Some of these lines once more:
| Structure (SMILES) | target | test | test system | setting | IC50 |
| --- | --- | --- | --- | --- | --- |
| Cc1nc(N(C)c2ccc3c(c2)/C(=C/c2ccccc2C)C(=O)N3C)c2ccccc2n1 | PIK3CD | enzyme activity, inhibitor, ADP detection | – | – | > 1000 nM |
